Measured values pooled from the literature.
Lines come from different studies, so protocols differ. ± gives the spread as reported.
Technique: steady-state kinetics
B1: ERAP1 K528R (Homo sapiens, UniProt Q9NZ08); chain MVFLPLKWSLATMSFLLSSLLALLTVSTPSWCQSTEASPKRSDGTPFPWNKIRLPEYVIPVHYDLLIHANLTTLTFWGTTKVEITASQPTSTIILHSHHLQISRATLRKGAGERLSEEPLQVLEHPRQEQIALLAPEPLLVGLPYTVVIHYAGNLSETFHGFYKSTYRTKEGELRILASTQFEPTAARMAFPCFDEPAFKASFSIKIRREPRHLAISNMPLVKSVTVAEGLIEDHFDVTVKMSTYLVAFIISDFESVSKITKSGVKVSVYAVPDKINQADYALDAAVTLLEFYEDYFSIPYPLPKQDLAAIPDFQSGAMENWGLTTYRESALLFDAEKSSASSKLGITMTVAHELAHQWFGNLVTMEWWNDLWLNEGFAKFMEFVSVSVTHPELKVGDYFFGKCFDAMEVDALNSSHPVSTPVENPAQIREMFDDVSYDKGACILNMLREYLSADAFKSGIVQYLQKHSYKNTKNEDLWDSMASICPTDGVKGMDGFCSRSQHSSSSSHWHQEGVDVKTMMNTWTLQRGFPLITITVRGRNVHMKQEHYMKGSDGAPDTGYLWHVPLTFITSKSDMVHRFLLKTKTDVLILPEEVEWIKFNVGMNGYYIVHYEDDGWDSLTGLLKGTHTAVSSNDRASLINNAFQLVSIGKLSIEKALDLSLYLKHETEIMPVFQGLNELIPMYKLMEKRDMNEVETQFKAFLIRLLRDLIDKQTWTDEGSVSERMLRSQLLLLACVHNYQPCVQRAEGYFRKWKESNGNLSLPVDVTLAVFAVGAQSTEGWDFLYSKYQFSLSSTEKSQIEFALCRTQNKEKLQWLLDESFKGDKIKTQEFPQILTLIGRNPVGYPLAWQFLRKNWNKLVQKFELGSSSIAHMVMGTTNQFSTRTRLEEVKGFFSSLKENGSQLRCVQQTIETIEENIGWMDKNFDKIRVWLQSEKLEHDPEADATG
B2: enzyme (Mortierella alpina, UniProt U5Y6A8); chain MAPPHVVDEQVRRRIVVEDEIQSKKQFERNYVPMDFTIKEIRDAIPAHLFIRDTTKSILHVVKDLVTIAIVFYCATFIETLPSLALRVPAWITYWIIQGTVMVGPWILAHECGHGAFSDSKTINTIFGWVLHSALLVPYQAWAMSHSKHHKGTGSMSKDVVFIPATRSYKGLPPLEKPAAEEEVLEQEHHHHEESIFAETPIYTLGALFFVLTLGWPLYLIMNFSGHEAPHWVNHFQTVAPLYEPHQRKNIFYSNCGIVAMGSILTYLSMVFSPLTVFMYYGIPYLGVNAWIVCITYLQHTDPKVPHFRDNEWNFQRGAACTIDRSFGTIVNHLHHHIGDSHQCHHMFSQMPFYNAVEATKHLKAKLGKYYIFDDTPIAKALYRNWRECKFVEDEGDVVFYKH
B3: Pck1 A467G (Rattus norvegicus, UniProt P07379); chain MPPQLHNGLDFSAKVIQGSLDSLPQEVRKFVEGNAQLCQPEYIHICDGSEEEYGRLLAHMQEEGVIRKLKKYDNCWLALTDPRDVARIESKTVIITQEQRDTVPIPKSGQSQLGRWMSEEDFEKAFNARFPGCMKGRTMYVIPFSMGPLGSPLAKIGIELTDSPYVVASMRIMTRMGTSVLEALGDGEFIKCLHSVGCPLPLKKPLVNNWACNPELTLIAHLPDRREIISFGSGYGGNSLLGKKCFALRIASRLAKEEGWLAEHMLILGITNPEGKKKYLAAAFPSACGKTNLAMMNPTLPGWKVECVGDDIAWMKFDAQGNLRAINPENGFFGVAPGTSVKTNPNAIKTIQKNTIFTNVAETSDGGVYWEGIDEPLAPGVTITSWKNKEWRPQDEEPCAHPNSRFCTPASQCPIIDPAWESPEGVPIEGIIFGGRRPAGVPLVYEALSWQHGVFVGAAMRSEATAGAEHKGKVIMHDPFAMRPFFGYNFGKYLAHWLSMAHRPAAKLPKIFHVNWFRKDKNGKFLWPGFGENSRVLEWMFGRIEGEDSAKLTPIGYVPKEDALNLKGLGDVNVEELFGISKEFWEKEVEEIDKYLEDQVNADLPYEIERELRALKQRISQM
B4: ycjS (Escherichia coli, UniProt P77503); chain MKSAMTSSPLRVAIIGAGQVADKVHASYYCTRNDLELVAVCDSRLSQAQALAEKYGNASVWDDPQAMLLAVKPDVVSVCSPNRFHYEHTLMALEAGCHVMCEKPPAMTPEQAREMCDTARKLGKVLAYDFHHRFALDTQQLREQVTNGVLGEIYVTTARALRRCGVPGWGVFTNKELQGGGPLIDIGIHMLDAAMYVLGFPAVKSVNAHSFQKIGTQKSCGQFGEWDPATYSVEDSLFGTIEFHNGGILWLETSFALNIREQSIMNVSFCGDKAGATLFPAHIYTDNNGELMTLMQREIADDNRHLRSMEAFINHVQGKPVMIADAEQGYIIQQLVAALYQSAETGTRVEL
B5: CYP6A8 (Drosophila melanogaster, UniProt Q27593); chain MALTYILFQVAVALLAILTYYIHRKLTYFKRRGIPFVAPHLIRGNMEELQKTKNIHEIFQDHYNKFRESKAPFVGFFFFQSPAAFVIDLELAKQILIKDFSNFSNKGIFYNEKDDPISAHLFNLDGAQWRLLRNKLSSTFTSGKMKLMYPTVVSVANEFMTVMHEKVPKNSVLEIRDLVARFTVDVIGTCAFGIQCNSLRDEKAEFLYFGKRSLVDKRHGTLLNGFMRSYPKLARKLGMVRTAPHIQEFYSRIVTETVAVREKEHIKRNDFMDMLIELKNQKEMTLENGDVVRGLTMEEVLAQAFVFFIAGFETSSSTMGFALYELAKNPDIQDKVRAEVEEVIEQHDQNFTYECTKDLKYLNQVLDETLRLYTIVPNLDRMAAKRYVVPGHPNFVIEAGQSVIIPSSAIHHDPSIYPEPFEFRPERFSPEESAGRPSVAWLPFGDGPRNCIGLRFGQMQARIGLALLIRNFKFSTCSKTPNPLVYDPKSFVLGVKDGIYLKVETV
B6: enzyme (Halalkalibacterium halodurans, UniProt Q9KCN8); chain MLNVTQLQEATTFIQQQIETKPTIGLILGSGLGILADEIEQPVKVPYSDIPHFPVSTVQGHAGQLVIGMLEGKQVIAMQGRFHFYEGYSLEVVTFPVRVMKALGVEQIIVTNAAGGVNESFEAGDLMIIRDHINNMAQNPLIGPNDEAFGVRFPDMSNAYSERLRTLAKEKGNTLNLKLQEGVYVANTGPVYETPAEVRMIRKLGGDAVGMSTVPEVIVARHAGLEVLGISCISNMAAGILPQPLSHDEVIETTERVRQDFLNLVKAIVKDM
B7: ABCB6 (Homo sapiens, UniProt Q9NP58); chain APGLRPQSYTLQVHEEDQDVERSQVRSAAQQSTWRDFGRKLRLLSGYLWPRGSPALQLVVLICLGLMGLERALNVLVPIFYRNIVNLLTEKAPWNSLAWTVTSYVFLKFLQGGGTGSTGFVSNLRTFLWIRVQQFTSRRVELLIFSHLHELSLRWHLGRRTGEVLRIADRGTSSVTGLLSYLVFNVIPTLADIIIGIIYFSMFFNAWFGLIVFLCMSLYLTLTIVVTEWRTKFRRAMNTQENATRARAVDSLLNFETVKYYNAESYEVERYREAIIKYQGLEWKSSASLVLLNQTQNLVIGLGLLAGSLLCAYFVTEQKLQVGDYVLFGTYIIQLYMPLNWFGTYYRMIQTNFIDMENMFDLLKEETEVKDLPGAGPLRFQKGRIEFENVHFSYADGRETLQDVSFTVMPGQTLALVGPSGAGKSTILRLLFRFYDISSGCIRIDGQDISQVTQASLRSHIGVVPQDTVLFNDTIADNIRYGRVTAGNDEVEAAAQAAGIHDAIMAFPEGYRTQVGERGLKLSGGEKQRVAIARTILKAPGIILLDEATSALDTSNERAIQASLAKVCANRTTIVVAHRLSTVVNADQILVIKDGCIVERGRHEALLSRGGVYADMWQLQQGQEETSEDTKPQTMER
Sequence of UniProt P34752 (whole entry, looked up): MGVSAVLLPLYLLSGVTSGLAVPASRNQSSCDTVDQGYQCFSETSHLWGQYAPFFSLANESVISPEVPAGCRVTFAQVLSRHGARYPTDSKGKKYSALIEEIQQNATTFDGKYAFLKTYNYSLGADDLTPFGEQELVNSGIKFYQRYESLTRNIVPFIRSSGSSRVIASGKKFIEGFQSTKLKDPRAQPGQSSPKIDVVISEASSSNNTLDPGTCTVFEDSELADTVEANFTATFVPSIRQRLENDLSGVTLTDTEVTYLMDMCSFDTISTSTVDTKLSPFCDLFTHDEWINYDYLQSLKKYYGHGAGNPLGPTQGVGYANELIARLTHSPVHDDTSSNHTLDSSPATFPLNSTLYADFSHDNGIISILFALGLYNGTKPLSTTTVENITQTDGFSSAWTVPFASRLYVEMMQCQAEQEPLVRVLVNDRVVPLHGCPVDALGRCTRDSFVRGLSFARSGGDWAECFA
Sequence of UniProt P07914 (whole entry, looked up): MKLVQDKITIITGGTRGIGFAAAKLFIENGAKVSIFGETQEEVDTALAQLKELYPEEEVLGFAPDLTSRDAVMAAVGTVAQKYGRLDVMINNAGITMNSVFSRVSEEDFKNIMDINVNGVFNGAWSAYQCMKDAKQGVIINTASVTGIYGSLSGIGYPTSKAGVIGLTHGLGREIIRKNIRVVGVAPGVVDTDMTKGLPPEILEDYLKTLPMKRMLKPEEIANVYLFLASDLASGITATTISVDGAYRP
Sequence of UniProt Q6P4A8 (whole entry, looked up): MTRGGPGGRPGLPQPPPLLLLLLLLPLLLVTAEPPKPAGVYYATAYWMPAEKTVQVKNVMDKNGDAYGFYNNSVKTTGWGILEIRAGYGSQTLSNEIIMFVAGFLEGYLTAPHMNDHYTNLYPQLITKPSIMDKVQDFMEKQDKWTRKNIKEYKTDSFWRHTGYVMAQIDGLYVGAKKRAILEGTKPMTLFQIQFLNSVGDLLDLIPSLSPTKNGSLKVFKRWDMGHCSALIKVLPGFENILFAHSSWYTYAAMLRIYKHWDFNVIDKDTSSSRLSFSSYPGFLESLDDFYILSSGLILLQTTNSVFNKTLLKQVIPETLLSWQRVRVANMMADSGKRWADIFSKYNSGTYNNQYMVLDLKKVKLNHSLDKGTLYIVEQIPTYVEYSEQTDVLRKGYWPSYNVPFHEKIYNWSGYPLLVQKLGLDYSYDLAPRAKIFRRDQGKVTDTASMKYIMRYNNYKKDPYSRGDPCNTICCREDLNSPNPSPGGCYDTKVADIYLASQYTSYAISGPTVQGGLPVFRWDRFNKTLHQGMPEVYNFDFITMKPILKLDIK

Substance	substrate	medium	pH	temperature	notes	with	kcat [s⁻¹]
BaiA1 (Clostridium scindens, UniProt P07914)	C[C@H](CCC(=O)SCCNC(=O)CCNC(=O)[C@H](O)C(C)(C)COP(=O)(O)OP(=O)(O)OC[C@H]1O[C@@H](n2cnc3c(N)ncnc32)[C@H](O)[C@@H]1OP(=O)(O)O)[C@H]1CC[C@H]2[C@@H]3CC[C@@H]4C[C@H](O)CC[C@]4(C)[C@H]3CC[C@]12C	–	pH 8.7	37 °C	–	NAD+	0.733
B1 (ERAP1 K528R)	CC(C)C[C@H](NC(=O)CNC(=O)[C@H](CCC(=O)O)NC(=O)[C@H](Cc1ccccc1)NC(=O)[C@H](CCCNC(=N)N)NC(=O)[C@H](CCCCN)NC(=O)[C@@H](N)Cc1ccc(O)cc1)C(=O)N[C@H](C(=O)N[C@@H](CCC(N)=O)C(=O)N[C@@H](CCCNC(=N)N)C(=O)O)[C@@H](C)O	–	–	25 °C	–	–	0.204 ± 0.015
PLBD1 self-cleaved, cathepsin L-processed (Homo sapiens, UniProt Q6P4A8)	CC[C@H](C)[C@H](N)C(=O)Nc1ccc2c(C)cc(=O)oc2c1	–	pH 4.5	37 °C	–	cathepsin L	0.73
B2 (enzyme)	CCCCC/C=C\C/C=C\C/C=C\C/C=C\CCCC(=O)SCCNC(=O)CCNC(=O)[C@H](O)C(C)(C)COP(=O)(O)OP(=O)(O)OC[C@H]1O[C@@H](n2cnc3c(N)ncnc32)[C@H](O)[C@@H]1OP(=O)(O)O	–	pH 7.5	28 °C	–	–	0.045 ± 0.00167
B3 (Pck1 A467G)	Nc1nc2c(ncn2[C@@H]2O[C@H](COP(=O)(O)OP(=O)(O)O)[C@@H](O)[C@H]2O)c(=O)[nH]1	–	pH 7.5	25 °C	–	–	1 ± 0.1
enzyme (Actinoalloteichus caeruleus, UniProt M1F4W9)	CSc1c(O)cc(-c2ccccn2)nc1C(=O)N[C@@H](CC(C)C)C(=O)O	–	pH 8	30 °C	–	–	0.393 ± 0.0208
enzyme (UniProt A0A7J5BGR1)	COc1cc(CN)ccc1O	–	pH 8	25 °C	–	–	0.017
B4 (ycjS)	CO[C@H]1O[C@H](CO)[C@@H](O)C(=O)[C@H]1O	–	pH 7	30 °C	–	NADH 0.3 mM	22 ± 0.8
phyA (Aspergillus niger, UniProt P34752)	O=P(O)(O)O[C@@H]1[C@@H](OP(=O)(O)O)[C@H](OP(=O)(O)O)[C@@H](O)[C@@H](OP(=O)(O)O)[C@H]1OP(=O)(O)O	–	pH 5	37 °C	–	–	136 ± 7
B5 (CYP6A8)	CCCCCCCCCC(=O)O	DLPC	pH 7.4	37 °C	total hydroxylation	P450 reductase, NADPH	0.00225 ± 0.000117
α-amino ester hydrolase (Xanthomonas campestris, UniProt Q8P8K4)	COC(=O)[C@H](N)c1ccccc1	–	pH 7	25 °C	phosphate 100 mM	–	982
B6 (enzyme)	Nc1nc2c(ncn2[C@@H]2O[C@H](CO)[C@@H](O)[C@H]2O)c(=O)[nH]1	–	pH 8	–	–	–	12
B7 (ABCB6)	C=CC1=C(C)c2cc3[nH]c(cc4nc(cc5[nH]c(cc1n2)c(C)c5CCC(=O)O)C(CCC(=O)O)=C4C)c(C)c3C=C	–	pH 8	37 °C	–	–	0.162

Repeated from above:
Substance	substrate	medium	pH	temperature	notes	with	kcat [s⁻¹]
B1 (ERAP1 K528R)	CC(C)C[C@H](NC(=O)CNC(=O)[C@H](CCC(=O)O)NC(=O)[C@H](Cc1ccccc1)NC(=O)[C@H](CCCNC(=N)N)NC(=O)[C@H](CCCCN)NC(=O)[C@@H](N)Cc1ccc(O)cc1)C(=O)N[C@H](C(=O)N[C@@H](CCC(N)=O)C(=O)N[C@@H](CCCNC(=N)N)C(=O)O)[C@@H](C)O	–	–	25 °C	–	–	0.204 ± 0.015
PLBD1 self-cleaved, cathepsin L-processed (Homo sapiens, UniProt Q6P4A8)	CC[C@H](C)[C@H](N)C(=O)Nc1ccc2c(C)cc(=O)oc2c1	–	pH 4.5	37 °C	–	cathepsin L	0.73
